Published values gathered from unrelated publications.
Several values in a cell are separate wells, animals, samples, runs or records. Numbers after ± are the reported error.

COc1cccc(OC)c1-c1cc(C(=O)NC2(C(=O)O)C3CC4CC(C3)CC2C4)nn1-c1ccc(C(=O)N(C)CCCN(C)CCCN(C)C(=O)[C@H](CCCCNC(=O)[C@H](CC(C)C)NC(=O)C2OC2C(=O)O)NC(=O)CN2CCN(CC(=O)[O-])CCN(CC(=O)[O-])CCN(CC(=O)[O-])CC2)cc1C(C)C.[177Lu+3] (mixture of isomers)  tissue uptake (mouse, HT-29 xenograft, heart; 4 h post injection): 2.2 %ID/g
Cc1cc(-c2ccc(C(=O)[C@@H]3CCCC[C@H]3C(=O)Nc3cnn4c3C(=O)NCC4)cc2)[nH]n1  cumulative radioactivity recovery (human, urine; oral, 200 mg, 0-144 h; reference: dose): 6.67% and 5.62% and 4.93% and 6.32% and 4.97% and 6.79%
COc1ccc2c(c1)C(=O)C(=C[O-])C2.[Na+]  degradation rate constant (chemical stability, HPLC-MS; borate buffered saline; pH 10.2, no N-acetyl-lysine): 0 h⁻¹
COC(=O)[C@@]1(C(C)C)C=C(C(=O)Nc2cccc(C(=O)Nc3ccc(Nc4nccc(-c5cccnc5)n4)c(C)c3)c2)C(=O)CC1  compound remaining (rat, plasma; 10 µM, 10 min): 103%
C=CC(=O)Nc1cc(Nc2nccc(-c3c[nH]c4ccccc34)n2)c(OC)cc1N(C)CCN(C)C  recovery (storage stability; human plasma; 30 d, -80 °C, HQC level): 97.8%
C=C(NC(=O)c1csc(-c2nc3c(cc2O)-c2nc(cs2)C(=O)NC(C(C)O)C(=O)NC(=C(C)OC)c2nc(cs2)C(=O)NC2c4nc(cs4)C(=O)NC(COC(=O)c4c5c6c(cccc6n4O)COC(=O)C(OC4CC(C)(O)C(N(C)C)C(C)O4)C2OC5)c2nc-3cs2)n1)C(N)=O (centres unmarked)  MRT(0-last) (cynomolgus monkey, both sexes, plasma; intravenous infusion, 3 mg/kg single dose): 1.48 h
O=C(Nc1cnccc1-c1ccc([18F])cc1)c1ccnc(NC(=O)C2CC2)c1  SUV (FVB/NJ mouse, both sexes, brain; intravenous, 4 min post-injection, with: P-gp inhibitor tariquidar 15 mg/kg iv): 0.81 ± 0.28
[2H]C1([2H])C[C@@H](C[C@@H](C#N)NC(=O)[C@@H]2[C@@H]3[C@H](CN2C(=O)[C@@H](NC(=O)C(F)(F)F)C(C)(C)C)C3(C)C)C(=O)N1  intrinsic clearance (human liver microsomes; microsomes 0.5 mg/mL): 11.8 µL/min/mg
COc1ccc(Nc2nc(Nc3ccc(OCCOCC[18F])cc3)ncc2Br)cc1  uptake ratio (ICR mice, S180 tumour; intravenous, 370 kBq, 5 min; reference: tumour over muscle): 2.86
CCCCN1C(=O)c2cccc3c(NCCN4CCOCC4)ccc(c23)C1=O  absorption maximum (chloroform): 427 nm
O=[N][Fe]1([N]=O)[S](CCO)[Fe]([N]=O)([N]=O)[S]1CCO  serum creatinine (aged C57BL/6JNarl mice on Western diet; po, 2.65 mg/kg daily, 16 weeks): 0.32 ± 0.04 mg/dL
CN(CCNc1ccc2ncc(-c3ccc(C(N)=O)cc3)n2n1)C(=O)OC(C)(C)C  drug concentration (mouse, SNL model, brain; oral, 60 mg/kg, 120 min): 77 nM
CN1CCC[C@]1(C)/C=C/S(=O)(=O)NC(=O)Nc1c2c(cc3c1CCC3)CC=C2  AUC(0-tau) (human, plasma; oral, 100 mg twice daily of parent drug, day 1, metabolite of dosed drug): 285 µg·h/mL
N=C(N)NCCC[C@@H]1NC(=O)[C@H](CO)NC(=O)[C@@H](NC(=O)[C@H](CO)NC(=O)[C@H](CO)NC(=O)[C@H](Cc2c[nH]c3ccccc23)NC(=O)CNC(=O)[C@H](CO)NC(=O)[C@@H](N)Cc2c[nH]c3ccccc23)CSSC[C@@H](C(=O)NCC(=O)O)NC(=O)[C@H](CO)NC1=O  clearance (patients, plasma; intravenous, 5 mg/kg, thrice weekly, geometric mean): 1280 L/h
CN(O)C(=O)CCC(=O)NCCCN(CCCCN(CCCNC(=O)CCC(=O)N(C)O)C(=O)CCC(=O)N(C)O)C(=O)CCC(=O)N(C)O.[89Zr]  intact compound (PBS; 1 days, pH 7, 37 °C): 98.5 ± 0.7%
Cc1c(Cc2ccc(Cl)c(O[C@H](C)C(=O)O)c2)c2ccc(C(=O)N[C@@H](C)c3ccc(C(C)(C)C)cc3)cc2n1CC(C)C  half-life (metabolic stability; mouse, liver microsomes): > 1 h
Cc1ccc(OCC(=O)N(Cc2cccs2)c2ccn[nH]2)cc1  remaining compound (monkey plasma; 750 ng/mL, 0.5 h, 37 °C, unit not given; reference: time zero): 113
CN1CCC[C@]1(C)/C=C/S(=O)(=O)NC(=O)Nc1c2c(cc3c1CC(O)C3)CCC2 (some centres unmarked)  AUC(0-tau) (human, plasma; oral, 100 mg twice daily of parent drug, day 1, metabolite of dosed drug): 65.7 µg·h/mL
CN([O-])C(=O)CN1CCNCCN(CC(=O)N(C)[O-])CC1.[89Zr+4]  tracer uptake (mouse, muscle; intravenous, 4 h): 0.09 %ID/g
CCCCN1C(=O)c2cccc3c(NCCCCCCCCCCN4CCOCC4)ccc(c23)C1=O  absorption maximum (chloroform): 428 nm
O=C([O-])CN1CCN(CC(=O)[O-])CCN(CC(CCCc2ccccc2[N+](=O)[O-])N(CC(=O)[O-])CC(=O)[O-])CC1.[90Y+3] (centres unmarked)  intact radiolabelled complex (HPLC; human serum; 135 h, pH 7, 37 °C): 100%
CC(C)(O)c1ncc([S@](N)(=O)=NC(=O)Nc2c3c(cc4c2CCC4)CCC3)s1  share of subjects with TEAEs (item: all system organ classes; healthy human subjects; oral, 100 mg, fed): 83%
CC1(C)OCCc2cc(C(=O)N3CCC(c4nc(-c5ccccc5)n[nH]4)CC3)ccc21  intrinsic clearance (human liver microsomes; pH 7.4, with: NADPH): 267 mL/min/kg
CCCCN1C(=O)c2cccc3c(NCCCCCCN4CCOCC4)ccc(c23)C1=O  absorption maximum (ethylene glycol): 448 nm
O=C(Nc1cnccc1-c1ccc([18F])nc1)c1ccnc(NC(=O)C2CC2)c1  SUV (mice, transgenic, GSK-3β, early-stage, blood; intravenous, dose not given, 120 min): 0.095
COCC1CN(C2CCN(c3cc(OC)c(Nc4ncc(Br)c(Nc5ccc6c(c5P(C)(C)=O)OCCO6)n4)cc3C)CC2)C1  adverse events (first-in-human trial; human; oral, 30 mg once daily; treatment-related leading to dose suspension): 0%

A few entries again:
CC(C)(O)c1ncc([S@](N)(=O)=NC(=O)Nc2c3c(cc4c2CCC4)CCC3)s1  share of subjects with TEAEs (item: all system organ classes; healthy human subjects; oral, 100 mg, fed): 83%
